Measurements of several laboratories.
Parts stem from different laboratories: compare values within a part only. Positions count from the first letter of the parent shown.

Block 1 — method: RNA Bind-n-Seq; molecule type: RNA; matrix: in vitro; tested at: 200 nM; notes: whole 134-nt RNA, ends assumed; added: 150 mM LiCl; baseline: input library; direction: higher = stronger binding; each molecule: 7-deaza-guanosine replaces G
Target: Fragile X messenger ribonucleoprotein 1, C-terminal low-complexity region (Fmr1, Mus musculus, UniProt P35922)
| Strand | log2 enrichment |
| --- | --- |
| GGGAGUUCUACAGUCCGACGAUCCCUCAAGUCCUGUGCUACACAUCGUAUGUACCGAAUCGGGCCGGCCGGCCGGAAAGUAUUAUGUUACGCCGUUCGGAUCUGCACUUCCAGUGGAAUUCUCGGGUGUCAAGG | 0.304 |
| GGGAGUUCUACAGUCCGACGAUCCUGUGCUACACAUCGUAUGUACCGAAUCGGGGAAAAAAAGGGGUUUUUGGGGAAAAAGGGGAAAGUAUUAUGUUACGCCGUUCGGAUCUGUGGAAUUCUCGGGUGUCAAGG | -0.572 |
| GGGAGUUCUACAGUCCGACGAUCUCAAGUCCUGUGCUACACAUCGUAUGUACCGAAUCGGUUUGGUUUUUGGAAAGGAAAGUAUUAUGUUACGCCGUUCGGAUCUGCACUUCCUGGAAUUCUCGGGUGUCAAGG | -0.545 |
| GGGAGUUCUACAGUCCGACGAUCAAUGUGUCCUCCCUGUCCAAAUUGGGAAUGACUUAAUGUCAAUUUGUUUGUUGGUUGUUUUAAUAAUACUUCCUUAUGUAGCCAUUAAGAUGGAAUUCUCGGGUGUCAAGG | -0.018 |
| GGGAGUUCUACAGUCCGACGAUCUGGCCCUGGUGGCAUGCGGGGAGGAAGAGGUGGCCUCAUGGAUCGUGGUGGUCCCGGUGGAAUGUUCACAGGUGGCCGUGGUGGAGACAGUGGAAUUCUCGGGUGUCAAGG | -1.15 |
| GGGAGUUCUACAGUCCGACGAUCUCAAGUCCUGUGCUACACAUCGUAUGUACCGAAUCGGAAAAAAAGGAAAGGAGGAAAGUAUUAUGUUACGCCGUUCGGAUCUGCACUUCCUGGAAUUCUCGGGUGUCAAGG | -1.12 |
| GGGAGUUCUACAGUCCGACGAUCUGGCCCUGGUGGCAUGCGGGGAGGAAGAGGUGGCCUCAUGGAUCGUGGUGGUCCCGGUGGAAUGUUCAGAGGUGGCCGUGUUGGAGACAGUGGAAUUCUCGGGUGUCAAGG | -0.794 |
| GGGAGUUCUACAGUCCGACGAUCCACAGACAACAGGCACCCACACAGACACAGAGGGAAGGGGUUGGGAUGGGGACAGGGUGCACAGCAGGGCGGGGUAGGACCCCAGCCCCUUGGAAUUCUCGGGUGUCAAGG | 0.231 |
| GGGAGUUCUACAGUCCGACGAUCUAAUUGAAGAACCCAUUUUGCUCAUUUUAGGCAUCGUUAAAGAAUCUGGAGUGAAGCACAAGGGAUUGAUUGAAAUACCCAAUCUUUCUGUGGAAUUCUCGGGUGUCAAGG | -1.3 |
| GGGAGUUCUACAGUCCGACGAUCACCAUGCAGGAGGGCAUCUUUGGGAAGUGGGGCAAGGGGGGGAUAGGGAGGGGGGUAACACUUUGGGAACAGGUGGUCCCAGGUCGUUUCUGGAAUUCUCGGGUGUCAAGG | 1.62 |
| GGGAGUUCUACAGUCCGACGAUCUGAGAGGUGGAUUUUGUUUAUUUUUUUAGCUCAUUUCCAGGGGUGGGAAUUUUUUUUUAAUAUGUGUCAUGAAUAAAGUUGUUUUUGAAAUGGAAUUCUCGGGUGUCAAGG | -0.211 |

Block 2 — method: competition protein-binding microarray; molecule type: double-stranded DNA, one strand shown; matrix: in vitro; tested at: 2 µM; added: Pho4 competitor, 0.05 µM; direction: higher = stronger binding
Target: Centromere-binding protein 1, full length, His-tagged (CBF1, Saccharomyces cerevisiae, UniProt P17106, residues 1-351)
Chain of UniProt P17106 (whole entry, looked up): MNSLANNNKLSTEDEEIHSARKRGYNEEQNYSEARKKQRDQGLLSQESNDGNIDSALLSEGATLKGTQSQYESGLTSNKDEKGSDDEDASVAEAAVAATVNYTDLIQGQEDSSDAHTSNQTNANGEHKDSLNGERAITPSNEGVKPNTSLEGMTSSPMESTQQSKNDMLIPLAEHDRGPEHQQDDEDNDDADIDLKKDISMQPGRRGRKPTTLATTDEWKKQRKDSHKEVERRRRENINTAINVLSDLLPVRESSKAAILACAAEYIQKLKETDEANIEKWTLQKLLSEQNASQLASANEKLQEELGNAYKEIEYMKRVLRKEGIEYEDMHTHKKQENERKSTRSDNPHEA
Notes: whole 60-bp probe, lowest competitor level
| Strand | fluorescence intensity [a.u.] |
| --- | --- |
| GTTTGATAGCTGGTTTACGTGCATCTCAAACAGAGAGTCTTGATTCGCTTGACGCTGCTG | 71.3 |
| CTTTCCCGATCTTTTCACGTGGCCTTAGCACATTTGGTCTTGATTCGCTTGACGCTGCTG | 744 |
| CTCTCCATTCATTCACACGTCATACATGGCTAACTGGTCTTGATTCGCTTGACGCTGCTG | 77.5 |
| GTCTTGTCTCATTGATGCGTGGGTGTCCCCACTTCAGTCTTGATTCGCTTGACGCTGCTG | 75.8 |
| TCGCTCTTTTCACTGCTCGTGCCGATGCAACGCTCCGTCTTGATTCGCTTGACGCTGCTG | 80 |
| TGCGCAACAACTTGTTATGTGGGTGTATGTCTAGAAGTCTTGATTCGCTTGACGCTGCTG | 70.6 |
| CTTTCCCGATCTTGTCACCCCACTTTAGCACATTTGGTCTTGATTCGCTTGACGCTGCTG | 69.7 |
| TGCGCAACAACTTGGTGGGTGGGTGTATGTCTAGAAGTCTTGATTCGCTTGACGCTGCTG | 65.3 |
| CTTCTGTAAATTTGGCTCGTGGGTGGACGCGCCCCGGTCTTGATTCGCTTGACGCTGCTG | 111 |
| CTTTCCCGATCTTTTCACGTGGGTTTAGCACATTTGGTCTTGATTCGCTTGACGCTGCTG | 686 |
| GTTTCACTTGCGTACTTCGTGCCAGGCTTGATGGCTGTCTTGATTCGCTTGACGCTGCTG | 57.9 |
| CATACCCAACCTTTTCACGTGTGGTAAGATATTTGTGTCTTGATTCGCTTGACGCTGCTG | 692 |
| CGTCCTAGTGATTGTAGTGTGGGTGCCATGAGGAAGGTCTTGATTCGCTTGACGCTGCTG | 83.1 |
| GTCTTGTCTCATTGCAGGGTGGGTGTCCCCACTTCAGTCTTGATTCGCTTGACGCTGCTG | 66.7 |
| TCGGATTACTTTACCCACGTGCGATATCATCAATTAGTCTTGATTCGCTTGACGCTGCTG | 1190 |
| CCTCGTCTGCTCTTCCACGTTCAGATGTTCCCTTGAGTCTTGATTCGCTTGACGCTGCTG | 62 |
| TGTTGCTGTTCGCGTCAGCTGAGGCTGAGTATCGTTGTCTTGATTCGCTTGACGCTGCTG | 88.4 |
| TGCGCAACAACTTGTACTGTGGGTGTATGTCTAGAAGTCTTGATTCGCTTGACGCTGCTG | 65.7 |
| AAATCGTCAGTAAAGTCAGAGTAATGATTTTTCACTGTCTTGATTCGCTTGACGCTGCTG | 80.4 |
| TATTTTTAGATATCTCACGTTTATACACATTGCCCAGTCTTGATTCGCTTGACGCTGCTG | 137 |
| AGAGCACTACAACAAGGCGTGGGTACTGCATAAAGAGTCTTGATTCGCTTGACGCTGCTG | 67.7 |
| AAAGCGGTAATTTGCCGGGTGGGTGCAGATATCTATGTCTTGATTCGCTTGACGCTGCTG | 72.5 |
| AACGGTTGATTCATTAATGTGATGCTTGTTCACCCTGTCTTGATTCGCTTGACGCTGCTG | 72.1 |
| CATACCCAACCTTGTTGAGTGGGTGAAGATATTTGTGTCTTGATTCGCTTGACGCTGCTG | 75.7 |
| ATTCCTACTTTCCGTCACGTGGGACGCCCGTTTAGGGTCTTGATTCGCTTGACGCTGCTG | 2680 |

Block 3 — method: RNA Bind-n-Seq; molecule type: RNA; matrix: in vitro; tested at: 365 nM; baseline: no-protein control; direction: higher = stronger binding
Target: RNA binding protein fox-1 homolog 2, RRM domain, GST-SBP tag (RBFOX2, Homo sapiens, UniProt O43251-10, residues 100-194)
Notes: natural RNA segment, single round, ends assumed
Construct (chain): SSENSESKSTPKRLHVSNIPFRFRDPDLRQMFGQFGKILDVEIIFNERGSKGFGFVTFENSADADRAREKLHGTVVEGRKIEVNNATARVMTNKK
| Strand | RBNS enrichment (R) |
| --- | --- |
| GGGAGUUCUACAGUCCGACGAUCGCCCAUGGCCGUGGGUCUCCUCGCUGAGCUGCAACCUGAUGCAUCGACAUUUAAUGUUGGCAGUGUCAGGCCUCUGACUUGAGACUACUGCUGUCGCAGAUCCUCUCUCUUGGAAUUCUCGGGUGCCAA | 0.186 |
| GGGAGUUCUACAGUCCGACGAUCGUAGGUAACUCUCCCCUCCCAAGUCCAUGUUCCAAGUGGCUAUGUAAAGCAAGAUGAUACAGAAAGCUGCUCUAAAAUCUCACUGAGUGAUUUCACCUUCGCCUACUAUGUGGAAUUCUCGGGUGCCAA | 0.858 |
| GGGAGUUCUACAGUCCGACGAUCCUGUUUCCAGUUUUUAAAAAUGUAAUAUUAUGGAAAGUAUUUUGCUUCAAGUUGAAUAUGUAUUGUGUAUAUACCUCAAGUUCAGGUUAAUGGCUUUGAUUUGUGCUCUAUGGAAUUCUCGGGUGCCAA | 0.593 |
| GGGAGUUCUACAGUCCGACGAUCUUGAUGGUGUCCAUACCGACUAUAUUGUUCCCAGCUUGUUCUGAGUAGCAUGUCAGCUGCUGAUGAAGUAGAAGGCCUGGGUGGCCUGGAAAAAGGACACAGAAUGGGGCUGGAAUUCUCGGGUGCCAA | 8.41 |
| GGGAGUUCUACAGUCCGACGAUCCGUUCAACAAAGGACCAGCAGCAUCUUAUCAGGCGAUCCUCAGAGGCUCCAAGGAGCAUUGGAGAGAAUGCCCCUUUCUGGGCUUGAUGUCUUGGUUUUGGUUUAAUACCUGGAAUUCUCGGGUGCCAA | 1.01 |
| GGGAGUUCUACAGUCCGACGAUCAAAAGAAGCAAACAGCGUUCAUUUCUGCUCCUGUAAUGGAGAAACAGCCAGCUCCCCUGCAUCCCUUACAGCCAACAGCUCCCUUCAGGCUUAGAGCAGGGGGAAUGGCAUGGAAUUCUCGGGUGCCAA | 0.811 |
| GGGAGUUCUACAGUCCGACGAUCCUCCUGUUCAGAAUAAUACUUAUUUACGUGUGAAAGCAACAUGGAUGUGAUUCCCAACACAGAAUUUUCAUGACCCUUUUAUUGUAUACAAAUAAAUACCAUAACAGUUAUGGAAUUCUCGGGUGCCAA | 0.441 |
| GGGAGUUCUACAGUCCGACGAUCUACAAAUAAAUACCAUAACAGUUACUUGGUUAGACAUCAAAUCUGUGUGCAUGACUAUGUGCUUAUCCACUUAAGACAAUAGGUAAAAGGGGAUCUGAGAAAUUAUGUAAUGGAAUUCUCGGGUGCCAA | 5.94 |
| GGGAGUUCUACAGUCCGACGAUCGUGAUGUUUUUAAAUGAAGAAAUGUGUGGAUAUUUAAGUGUGCUGCUCCCUCUUGUCUUGAAACAGUUUGAGUAAGAAAGUCUUGCUGUAAAUGCUGCCCUCUGCCGCCUUGGAAUUCUCGGGUGCCAA | 1.18 |
| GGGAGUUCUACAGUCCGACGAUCACGCCAGGAGCAGGUGGCAGCUAAGGUGGUCCCCCGCAACCCUCCCACUUGUGUCUCACCCCCAUGUCAUUUCUCCUUCUCUGCCUUGGUUCCUCUUUCUCCAUCACUGGUGGAAUUCUCGGGUGCCAA | 0.534 |
| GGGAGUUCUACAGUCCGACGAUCACCCGGUGCGGCCUCAGCAGCUUCUGUGGGAACAGAGCCAGUCUGCACGGAGGAGGCUAAGACUCCAUCUCGGCCUUUGAACUCAGAGAUCCCCCUGCCUCAGCCUCCAGUGGAAUUCUCGGGUGCCAA | 0.356 |
| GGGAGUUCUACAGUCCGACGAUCUGUUGGAUACUUAUAAUCAAAACUUUUACUAGGGUAUUGAAUAAAUCUAGUCUUACUAGAAAAUAAAGGAGCUGUUUUGUGGCUUUGUUUGACAGGUCUUCAGUAAGAAUUGGAAUUCUCGGGUGCCAA | 0.642 |

Block 4 — method: DHFR PCA, deep sequencing; matrix: yeast; added: (+)-ABA 0 µM; baseline: wild-type fitted maximum; direction: higher = stronger binding
Target: ABI1, truncated, D143A, DHFR fusion (Arabidopsis thaliana)
Notes: methotrexate growth selection, single substitutions
Starting sequence: PYL1, truncated, DHFR fusion (Arabidopsis thaliana); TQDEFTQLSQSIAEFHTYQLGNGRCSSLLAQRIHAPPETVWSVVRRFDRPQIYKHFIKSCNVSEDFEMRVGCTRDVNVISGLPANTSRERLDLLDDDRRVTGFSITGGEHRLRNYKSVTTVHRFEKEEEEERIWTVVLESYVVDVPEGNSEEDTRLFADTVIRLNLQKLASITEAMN
| Variant | relative binding score |
| --- | --- |
| R113N | 11.9% |
| L91F | 3.28% |
| R163A | 28.7% |
| V143M | -0.337% |
| K168N | 57.2% |
| H16L | 0.587% |
| V44D | -2.67% |
| N149K | 10.3% |
| I57K | -1.89% |
| S80P | -0.334% |
| L164V | 9.9% |
| Q7D | 20.3% |
| W134E | 29.6% |
| T173N | 0.45% |
| I79Q | 0.131% |
| E64W | -3.18% |
| L93W | -5.32% |
| V43P | -5.56% |
| V136D | 5.24% |

A few entries again (block 2):
| Strand | fluorescence intensity [a.u.] |
| --- | --- |
| CTTCTGTAAATTTGGCTCGTGGGTGGACGCGCCCCGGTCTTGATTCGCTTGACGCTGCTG | 111 |
| AAATCGTCAGTAAAGTCAGAGTAATGATTTTTCACTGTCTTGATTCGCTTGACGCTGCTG | 80.4 |
| CCTCGTCTGCTCTTCCACGTTCAGATGTTCCCTTGAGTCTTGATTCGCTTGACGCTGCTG | 62 |
| CTCTCCATTCATTCACACGTCATACATGGCTAACTGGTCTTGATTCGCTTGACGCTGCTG | 77.5 |
